Assay results from different studies.
Protocols differ between the studies behind these lines. ± gives the spread as reported. Ends that are not written are not given here.
B1: enzyme (Bacillus pumilus, UniProt A8FFI9); chain EARSIAWSVDEFFKNREGTFVIQEVKEKSPWVYNKKRAKERFAPQSTFKVANALIGLQTGAVRDEYDIKYWDGVKREIDNWNRDHTLGSGMRDSVVWYYQAMARDIGEERMNHWVKAIHYGNKDISGGIDQFWLSSTLRISPIEQVRFLKQLYEETLPFDLKNMRTVKRMMVQEEEKHATLYGKTGSGSDIGWYVGFIKHEHKTYILATNIKGTGIEAKDITYRILKKYHLMEASV
B2: UGT1A9 (Homo sapiens, UniProt O60656); chain GKLLVVPMDGSHWFTMRSVVEKLILRGHEVVVVMPEVSWQLGRSLNCTVKTYSTSYTLEDLDREFKAFAHAQWKAQVRSIYSLLMGSYNDIFDLFFSNCRSLFKDKKLVEYLKESSFDAVFLDPFDNCGLIVAKYFSLPSVVFARGILCHYLEEGAQCPAPLSYVPRILLGFSDAMTFKERVRNHIMHLEEHLLCHRFFKNALEIASEILQTPVTEYDLYSHTSIWLLRTDFVLDYPKPVMPNMIFIGGINCHQGKPLPMEFEAYINASGEHGIVVFSLGSMVSEIPEKKAMAIADALGKIPQTVLWRYTGTRPSNLANNTILVKWLPQNDLLGHPMTRAFITHAGSHGVYESICNGVPMVMMPLFGDQMDNAKRMETKGAGVTLNVLEMTSEDLENALKAVINDKSYKENIMRLSSLHKDRPVEPLDLAVFWVEFVMRHKGAPHLRPAAHDLTWYQYHSLDVIGFLLAVVLTVAFITFKCCAYGYRKCLGKKGRVKKAHKSKTH
Sequence of UniProt Q02821 (whole entry, looked up): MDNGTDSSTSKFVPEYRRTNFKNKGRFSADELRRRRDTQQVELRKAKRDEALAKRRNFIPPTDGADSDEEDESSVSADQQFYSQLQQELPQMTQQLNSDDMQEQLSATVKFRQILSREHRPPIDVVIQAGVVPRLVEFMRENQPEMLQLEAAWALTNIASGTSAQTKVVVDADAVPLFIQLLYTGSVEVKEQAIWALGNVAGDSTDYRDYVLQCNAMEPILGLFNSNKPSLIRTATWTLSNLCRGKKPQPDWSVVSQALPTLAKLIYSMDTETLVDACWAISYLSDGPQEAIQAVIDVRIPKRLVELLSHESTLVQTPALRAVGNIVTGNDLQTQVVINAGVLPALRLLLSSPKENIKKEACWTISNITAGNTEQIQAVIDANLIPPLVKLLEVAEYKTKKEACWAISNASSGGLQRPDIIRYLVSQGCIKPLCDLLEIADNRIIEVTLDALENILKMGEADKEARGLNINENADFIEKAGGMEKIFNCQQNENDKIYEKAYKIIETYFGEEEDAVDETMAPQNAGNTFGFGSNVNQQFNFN
Sequence of UniProt Q03281 (whole entry, looked up): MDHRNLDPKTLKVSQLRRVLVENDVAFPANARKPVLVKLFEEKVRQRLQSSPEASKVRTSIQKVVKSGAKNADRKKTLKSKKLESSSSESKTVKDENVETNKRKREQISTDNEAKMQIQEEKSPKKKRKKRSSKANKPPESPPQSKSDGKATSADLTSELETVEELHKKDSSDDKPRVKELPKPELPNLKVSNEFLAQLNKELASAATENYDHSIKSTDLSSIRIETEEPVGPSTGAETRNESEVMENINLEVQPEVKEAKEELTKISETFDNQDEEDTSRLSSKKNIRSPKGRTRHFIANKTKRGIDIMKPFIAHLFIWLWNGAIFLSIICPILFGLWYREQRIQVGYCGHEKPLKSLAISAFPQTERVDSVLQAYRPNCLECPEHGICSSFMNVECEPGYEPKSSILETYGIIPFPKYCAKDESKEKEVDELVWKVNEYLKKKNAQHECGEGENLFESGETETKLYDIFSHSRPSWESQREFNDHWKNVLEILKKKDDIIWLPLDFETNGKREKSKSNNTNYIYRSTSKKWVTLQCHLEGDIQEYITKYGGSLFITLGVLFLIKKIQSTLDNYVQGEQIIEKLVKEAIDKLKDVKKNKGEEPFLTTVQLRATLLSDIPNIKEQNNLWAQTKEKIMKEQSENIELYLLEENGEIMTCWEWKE

Molecule	target or system	assay	system	conditions	how to read	measurement	value
COc1cccc2c1C(=O)c1c(O)c3c(c(O)c1C2=O)C[C@@](O)(C(=O)CO)C[C@@H]3O[C@H]1C[C@H](NC(=O)[C@@H]2CCCN2C(=O)CN)[C@H](O)[C@H](C)O1	–	–	mouse, E0771 tumour-bearing, kidney	intravenous, 92 µmol/kg PhAc-ALGP-Dox	–	terminal half-life	12.7 h
CC(C)[C@H](NC(=O)[C@@H]1CCCN1C(=O)[C@H](CCCNC(=N)N)NC(=O)[C@H](CS)NC(=O)[C@H](Cc1c[nH]c2ccccc12)NC(=O)[C@H](CCCNC(=N)N)NC(=O)[C@@H](Cc1ccccc1)NC(=O)[C@H](Cc1c[nH]cn1)NC(=O)[C@H](CCC(=O)O)NC(=O)[C@H](CS)NC(=O)[C@H](CS)NC(=O)[C@H](CCCCN)NC(=O)[C@@H]1CC(=O)N[C@@H](CCCNC(=N)N)C(=O)N[C@@H](C)C(=O)N[C@@H](CC(=O)O)C(=O)N[C@H](Cc2ccc(O)cc2)C(=O)N1)C(N)=O [technetium-99m labelled]	–	–	C57 mice, brain	intravenous, 0.037 MBq, 4 h	–	tissue uptake	0.02 %ID/g
SRP1 (Saccharomyces cerevisiae, UniProt Q02821)	HEH2 100-137 (Saccharomyces cerevisiae, UniProt Q03281)	wide-field microscopy	yeast	–	higher = more cells enriched	co-enrichment at peripheral ER	45%
B1 (enzyme)	O=C(Cc1cccs1)N[C@@H]1C(=O)N2C(C(=O)O)=C(/C=C/c3ccc([N+](=O)[O-])cc3[N+](=O)[O-])CS[C@H]12	steady-state kinetics	–	pH 7	–	kcat/Km	1e+07 ± 1e+06 M⁻¹ s⁻¹
CSCC[C@H](NC(=O)[C@H](CC(C)C)NC(=O)[C@H](Cc1c[nH]cn1)NC(=O)CNC(=O)[C@@H](NC(=O)[C@H](C)NC(=O)[C@H](Cc1c[nH]c2ccccc12)NC(=O)[C@H](CCC(N)=O)NC(=O)CCCCCNC(=O)[C@H](CCC(=O)NCCCC[C@@H]1NC(=O)[C@@H](Cc2ccc(O)cc2)NC(=O)[C@H](CC(=O)O)NC(=O)CNC(=O)[C@H](CCCNC(=N)N)NC1=O)NC(=O)CN1CCN(CC(=O)O)CCN(CC(=O)O)CC1)C(C)C)C(N)=O [copper-64 labelled]	–	–	ICR SCID mouse, female, liver	intravenous, 750 kBq, 24 h	–	tissue uptake	1.24 ± 0.23 %ID/g
CC(C)[C@H](NC(=O)[C@@H]1CCCN1C(=O)[C@H](CCCNC(=N)N)NC(=O)[C@H](CS)NC(=O)[C@H](Cc1c[nH]c2ccccc12)NC(=O)[C@H](CCCNC(=N)N)NC(=O)[C@@H](Cc1ccccc1)NC(=O)[C@H](Cc1c[nH]cn1)NC(=O)[C@H](CCC(=O)O)NC(=O)[C@H](CS)NC(=O)[C@H](CS)NC(=O)[C@H](CCCNC(=N)N)NC(=O)[C@@H]1CC(=O)N[C@@H](CCCNC(=N)N)C(=O)N[C@@H](C)C(=O)N[C@@H](CC(=O)O)C(=O)N[C@H](Cc2ccc(O)cc2)C(=O)N1)C(N)=O [technetium-99m labelled]	–	–	C57 mouse, urinary bladder	intravenous, 0.037 MBq, 4 h	–	tissue uptake	80.2 ± 2.77 %ID
desB30 human insulin	none	reversed-phase chromatography, C4 silica	–	concentration not given, pH 7.5, up to 40 °C, with: KCl, ethanol	–	entropy change of adsorption	-510 ± 72 J/(mol·K)
insulin degludec	–	insulin degludec-specific ELISA	healthy human subjects, serum	subcutaneous, deltoid, 0.4 U/kg	–	AUC(0-120 h)	81.1 nM·h
B2 (UGT1A9)	COc1cccc(-c2oc3ccccc3c(=O)c2O)c1	steady-state kinetics	–	pH 7.4, 37 °C	–	Vmax/Km	46000 µL/min/mg
insulin lispro	–	–	human, type 1 diabetes	subcutaneous, FAST PK setting, no carbohydrate interventions	–	time to 95% clearance	6.4 h
KCNTATCATQRLANFLVHSSNNFGPILPPTNVGSNTY (Pramlintide; not fully specified (C-terminus, bridges); cysteine pairing not given here; sequence looked up)	–	–	peptide, obese or overweight humans	dose not given, through week 20, ITT	–	withdrawal due to adverse event	5%
Insulin human	–	ELISA	rat, striatum	intranasal, 20 µg per nostril, 15 min	–	concentration	198 ± 101 pg/mg tissue
insulin degludec	–	–	human, mild hepatic impairment, serum	subcutaneous, 0.4 U/kg single dose	–	AUC(0-120 h)	83.3 nM·h

Some of these lines once more:
Molecule	target or system	assay	system	conditions	how to read	measurement	value
B2 (UGT1A9)	COc1cccc(-c2oc3ccccc3c(=O)c2O)c1	steady-state kinetics	–	pH 7.4, 37 °C	–	Vmax/Km	46000 µL/min/mg
CC(C)[C@H](NC(=O)[C@@H]1CCCN1C(=O)[C@H](CCCNC(=N)N)NC(=O)[C@H](CS)NC(=O)[C@H](Cc1c[nH]c2ccccc12)NC(=O)[C@H](CCCNC(=N)N)NC(=O)[C@@H](Cc1ccccc1)NC(=O)[C@H](Cc1c[nH]cn1)NC(=O)[C@H](CCC(=O)O)NC(=O)[C@H](CS)NC(=O)[C@H](CS)NC(=O)[C@H](CCCCN)NC(=O)[C@@H]1CC(=O)N[C@@H](CCCNC(=N)N)C(=O)N[C@@H](C)C(=O)N[C@@H](CC(=O)O)C(=O)N[C@H](Cc2ccc(O)cc2)C(=O)N1)C(N)=O [technetium-99m labelled]	–	–	C57 mice, brain	intravenous, 0.037 MBq, 4 h	–	tissue uptake	0.02 %ID/g
